Published values collected from several papers.
Protocols differ between the studies behind these lines. Values joined by “and” are separate records of one study, mostly repeats; a detail may differ. ± gives the spread as reported.
Organism: Plasmodium falciparum

| Compound | assay | system | setting | scale | measurement | result |
| --- | --- | --- | --- | --- | --- | --- |
| CCOC(=O)N1CCC(=C2c3ccc(Cl)cc3CCc3cccnc32)CC1 | – | GB4 | – | – | IC50 | 10000 nM |
| NCCC[C@@H](CC(=O)N[C@@H]1CCNC[C@H]1C(=O)N[C@H](CC(=O)N[C@@H](CCC(=O)O)CC(=O)O)Cc1c[nH]c2ccccc12)NC(=O)C[C@H](CO)NC(=O)[C@@H]1CNCC[C@H]1N | SYBR Green | FVO | concentration not given, 36 h | – | growth inhibition | inactive |
| CCNC(=O)N1CCN(CCCC(c2ccc(F)cc2)c2ccc(F)cc2)CC1 | – | HB3 | – | – | IC50 | 794 nM |
| CC(C)C[C@H](NC(=O)[C@H](Cc1c[nH]c2ccccc12)NC(=O)CN1CCOCC1)C(=O)N[C@H](/C=C/S(C)(=O)=O)Cc1c[nH]c2ccccc12 | – | Dd2 β5 S28L CRISPR-edited | concentration not given | – | EC50 | 11 ± 2.7 nM |
| C[C@]12C=CC(=O)C=C1CC[C@@H]1C2=CC[C@]2(C)[C@@H](C(=O)CN3CCN(c4cc(N5CCCC5)nc(N5CCCC5)n4)CC3)CC[C@@H]12 | – | 3D7 | – | – | IC50 | 631 nM |
| Oc1ccc2c3c1O[C@H]1c4[nH]c5c(c4C[C@@]4(O)[C@@H](C2)N(CC2CC2)CC[C@]314)C[C@@]1(O)[C@H]2Cc3ccc(O)c4c3[C@@]1(CCN2CC1CC1)[C@H]5O4 | growth, SYBR green | FVO | concentration not given, 36 h | – | activity | active |
| O=C1C(O)=C([C@H]2CC[C@H](c3ccc(Cl)cc3)CC2)C(=O)c2ccccc21 | – | C2B | 72 h | relative to: C2B over 3D7 | resistance index | 3350 |
| CC(C)C[C@H](NC(=O)[C@H](Cc1ccccc1)NC(=O)c1cnccn1)B(O)O | – | Dd2 β3 R190S resistant | – | – | EC50 | 60 ± 9.5 nM |
| COc1ccc(-n2ccnc2SCC(=O)Nc2cc(C(F)(F)F)ccc2Cl)c(OC)c1 | parasite growth, SYBR Green | – | 72 h | relative to: 3D7-E182D over 3D7 | EC50 ratio | 7.6 |
| Clc1cccc(C(c2ccc3[nH]cnc3c2)n2ccnc2)c1 (stereo not shown) | – | FVO, purified merozoites, erythrocytes | 50 µM | – | merozoite invasion | 54% |
| CCN(CC)CCCC(C)Nc1ccnc2cc(Cl)ccc12 (stereo not shown) | growth, [3H]-hypoxanthine uptake | Dd2 | 96 h | relative to: Dd2 IC50 over 3D7 IC50 | resistance index | 6.5 |
| COc1ccccc1Cn1ccnc1SCC(=O)Nc1cccc(C(F)(F)F)c1 | parasite growth, SYBR Green | – | 72 h | relative to: 3D7-E182D over 3D7 | EC50 ratio | 8.8 |
| Cn1cc(-c2ccc3ccn(CC(=O)Nc4ccccc4Cl)c3c2)cn1 | – | Dd2 PfATP4 I398F P990R D1247Y | 72 h | relative to: mutant over parental | EC50 fold shift | 5 fold |
| O=C(CNCC1CCCCC1)Nc1cc(C(F)(F)F)ccc1Cl | parasite growth, SYBR Green | 3D7 DHODH E182D | 72 h | – | EC50 | 4100 ± 580 nM |
| Cn1nc2c(=O)n(C3CC3)cnc2c1[C@](O)(c1cnc(C(F)(F)F)c(Cl)c1)C(F)(F)F | – | Pf3D7^0087/N9, mouse | 30 mg/kg for 6 days | – | day parasites below quantitation limit | ≤ 9 days |
| CN1[C@@H]2CC[C@H]1C[C@@H](OC(=O)c1cc(Cl)cc(Cl)c1)C2 | – | W2 | – | – | IC50 | 7940 nM |
| Cl.O[C@]12C=C(c3nccc4c3[nH]c3ccccc34)[C@@H]3CCN(CCCC/C=C\CC1)C[C@@]31C[C@@H]3/C=C\CCCCN3[C@H]12 | – | D6, chloroquine-sensitive | – | relative to: Vero IC50 over D6 IC50 | selectivity index | 70 |
| CC1(C)N=C(N)N=C(N)N1c1ccc(Cl)cc1 | growth, [3H]-hypoxanthine uptake | FCR3 | 72 h | relative to: FCR3 IC50 over 3D7 IC50 | resistance index | 150 |
| CC[C@H](C)[C@H](NC(=O)[C@H]([C@@H](C)CC)N(C)C(C)=O)C(=O)N[C@H](C(=O)N[C@@H](CC(C)C)C(=O)[C@@]1(C)CO1)[C@@H](C)O | SYBR Green | Dd2 | 72 h | – | EC50 | 14 ± 2.3 nM |
| Nc1nccc2c1ncn2[C@@H]1O[C@H](CO)[C@@H](O)[C@H]1O | – | GB4 | – | – | IC50 | 5010 nM |
| O=C(NCCN1CCCC1)c1cc(-c2ccc(CN3CCOCC3)cc2)nc2ccc(F)cc12 | 18S rRNA qPCR | human | 800 mg | – | break point of parasite clearance | 47.4 h and 53.9 h and 60 h and 62.2 h and 53.4 h and 51.3 h and 58.8 h and 55.7 h |
| Cc1ccc2c(c1)CC[C@@](CCN(C)CCCc1nc3ccccc3[nH]1)(OC(=O)C1CC1)[C@H]2C(C)C | – | 3D7 | – | – | IC50 | 3160 nM |

| Compound | assay | system | setting | scale | measurement | result |
| --- | --- | --- | --- | --- | --- | --- |
| COc1cc(NC(=O)Cn2ccc3cc(F)c(-c4cnn(C)c4)cc32)cc(OC)c1OC | – | recrudescent Dd2-B2, PfATP4 V178I | flask 2 | relative to: Dd2-B2 | IC50 fold shift | 106 |
| c1cc([C@H]2CC[C@]3(CC2)OO[C@]2(O3)C3CC4CC(C3)CC2C4)ccc1OCCN1CCOCC1 | – | human patients, malaria | oral, 200 mg | – | lag phase duration | 6 h |
| CCCNC(=O)c1ccnc(-c2ccc(CNC3Cc4ccccc4C3)cc2)c1.O=C(O)C(F)(F)F.O=C(O)C(F)(F)F | parasite growth, SYBR Green | – | 72 h | relative to: 3D7-E182D over 3D7 | EC50 ratio | 1.4 |
| CN(Cc1ccco1)c1ncnc2ccc(-c3ccoc3)cc12 | – | FVO, purified merozoites, erythrocytes | 50 µM | – | merozoite invasion | 89% |
| OC(CN1CCC(Cc2ccc(F)cc2)CC1)c1ccc(Cl)cc1 (stereo not shown) | – | W2 | – | – | IC50 | 251 nM |
| C[C@H]1[C@@H](O)O[C@@H]2O[C@@]3(C)CC[C@H]4[C@H](C)CC[C@@H]1[C@@]24OO3 | ring-stage survival | 5150 | 700 nM, 6 h | – | parasite survival | 0.16% |
| COc1cc(NC(=O)Cn2ccc3ccc(-c4nnc(C)o4)cc32)cc(OC)c1OC | – | 7G8 | – | relative to: 7G8 over 3D7 | EC50 fold shift | 2 fold |
| CC(CN1c2ccccc2Sc2ccccc21)N(C)C (stereo not shown) | – | Dd2 | – | – | IC50 | 6310 nM |
| CCn1c(-c2ccccc2)cc2nnc3ccccc3c21 | parasite growth, SYBR Green | 3D7 wild type | 72 h | – | EC50 | 293 ± 46 nM |
| Ic1ccc(N2CCN(Cc3c[nH]c4ncccc34)CC2)cc1 | – | FVO, purified merozoites, erythrocytes | 50 µM | – | merozoite invasion | 87% |
| Cl.Oc1cccc2c1[nH]c1c(C3=CC4(O)CC/C=C\CCCCN5CCC3C3(CC6/C=C\CCCCN6C43)C5)nccc12 (single isomer, unassigned; (+)) | – | D6, chloroquine-sensitive | – | relative to: Vero IC50 over D6 IC50 | selectivity index | 25 |
| CCc1nnc(-c2ccc3ccn(CC(=O)Nc4cc(OC)c(OC)c(OC)c4)c3c2)o1 | parasite growth | Dd2 PfATP4 F156L | – | relative to: parental Dd2 | EC50 shift | ~2 fold |
| CC(C)C[C@@H](CC(=O)N[C@@H](CCCN)CC(=O)N[C@@H]1CCNC[C@H]1C(=O)N[C@H](CC(=O)N[C@@H](CCC(=O)O)CC(=O)O)Cc1ccccc1)NC(=O)[C@@H]1CNCC[C@H]1N | SYBR Green | FVO | concentration not given, 36 h | – | growth inhibition | inactive |
| O=C(c1cc2ccccc2[nH]1)N1CC[C@]2(C1)C[C@H](Nc1ccncn1)C2 | – | PSAC-resistant lines | concentration not given | relative to: parental 3D7A | sorbitol lysis protection | decreased |
| Cc1ccc(N(C)c2ccc(NC(=O)CN(C)c3cccnc3N3CCCC3=O)cc2)cc1 | parasite growth, LDH | 3D7 population D, CSC1 L954F | 72 h | – | EC50 | 252 nM |
| CCC(c1ccccc1)c1nn2c(-c3cccs3)nnc2s1 (stereo not shown) | parasite growth, SYBR Green | 3D7 DHODH E182D | 72 h | – | EC50 | 333 ± 49 nM |
| C[C@@H]1CC[C@H]2[C@@H](C)C(=O)O[C@@H]3O[C@@]4(C)CC[C@@H]1[C@]32OO4 | – | 3D7 | 3 x IC50, treatment from late stage | – | new ring formation | 3 to 5% |
| COc1ccc(-n2ccnc2SCC(=O)Nc2cc(Cl)ccc2OC)c(OC)c1 | parasite growth, SYBR Green | 3D7 wild type | 72 h | – | EC50 | 1020 ± 350 nM |
| Cc1nnc(-c2ccc3ccn(CC(=O)Nc4ccccc4Cl)c3c2)o1 | – | Dd2 PfATP4 G358S | 72 h | relative to: mutant over parental | EC50 fold shift | 3 fold |
| CC(=O)c1c(Cc2ccccc2Cl)c[nH]c1C | parasite growth | – | – | – | EC50 | 85.8 ± 54 nM |
| CO[C@@]12[C@H](COC(N)=O)C3=C(C(=O)C(C)=C(N)C3=O)N1C[C@@H]1N[C@@H]12 | – | – | – | relative to: IC50 Dd2 over IC50 3D7 | resistance index | 0.65 |
